Results from different studies.
Lines come from different studies, so protocols differ. Values joined by “and” are separate records of one study, mostly repeats; a detail may differ. Numbers after ± are the reported error.

With `O=C(N/N=C/c1ccc2c(ccc[n+]2Cc2ccccc2)c1)c1cncc(C(=O)N/N=C/c2ccc3c(ccc[n+]3Cc3ccccc3)c2)n1` the ΔTm was 2.5 ± 0.1 °C (hp2 hairpin duplex DNA; FRET melting; 1 µM).
For `CCCCCCc1cccc([C@H](O)C[C@H](CO)NC(=O)CCCCCCCCCCBr)c1`, the sphingomyelin level was 519000 pmol and 645000 pmol and 636000 pmol (CERT; HPLC-MS/MS, measured: SM C16; HeLa; 1 µM, 24 h).
For `O=C(N/N=C/c1ccc(C[n+]2ccccc2)cc1)c1ccc2ccc(C(=O)N/N=C/c3ccc(C[n+]4ccccc4)cc3)nc2n1`, the ΔTm was 6.6 ± 0.4 °C (MYC parallel G4 DNA; FRET melting; 1 µM, DNA 0.2 µM).
With `Nc1ncc(-c2cc(-c3cnn(CC(F)(F)F)c3)ncc2F)nc1C(=O)NC1CNCC(F)C1` (centres unmarked) the remaining binding was 73% (ACVR1; KINOMEscan; 1 µM; baseline: DMSO control).
The licking time of `O=C(Nc1ccccc1)c1ccc(Nc2nnc(-c3ccc(O)cc3)c3ccccc23)cc1` is reported as 0 s (TRPV1; nocifensive response; mouse; intraplantar, 10 µg).
`Cc1ncc(CNc2nc(N3CC(CCOc4cc(-c5scnc5C)ccc4CNC(=O)[C@@H]4C[C@@H](O)CN4C(=O)[C@@H](NC(=O)C4(F)CC4)C(C)(C)C)C3)nc(N3CCC[C@H]3Cn3ccnn3)n2)c(N)n1` gave a cooperativity alpha of 2.9 (VHL-elongin C-elongin B and BRD9; SPR; immobilized VHL-elongin C-elongin B; baseline: binary KD over ternary KD).
The maximal inhibition of `Fc1ccc(Nc2nc(NC3CCCCC3)c3cc(Br)ccc3n2)cc1F` is reported as -2.8% (β2AR/β1AR ECL2/3 chimera; β-arrestin2 recruitment, antagonist, BRET; baseline: isoprenaline maximal response).
The cooperativity alpha of `CC(=O)NCCN(c1nc(N2CC3C(CCOc4cc(-c5scnc5C)ccc4CNC(=O)[C@@H]4C[C@@H](O)CN4C(=O)[C@@H](NC(=O)C4(F)CC4)C(C)(C)C)C3C2)nc(N2CC(n3ccnc3)C2)n1)C(C)C` (some centres unmarked) is reported as 30 (VHL-elongin C-elongin B and BRD9; SPR; immobilized VHL-elongin C-elongin B; baseline: binary KD over ternary KD).
With `C=CC(=O)N1[C@@H](c2ccc3c(c2)OCO3)c2[nH]c3ccccc3c2C[C@H]1C(=O)N1CCN(C)CC1` the relative co-enrichment was 76% (human cyclin E1 wild type-3xFLAG:CDK2; co-IP with TMT proteomics, measured: DDX3X; concentration not given, O00571; baseline: wild type DMSO).
With `C[n+]1ccc(/C=N/NC(=O)C(=O)N/N=C/c2cc[n+](C)c3ccccc23)c2ccccc21` the ΔTm was 1.2 ± 0.4 °C (hp2 hairpin duplex DNA; FRET melting; 1 µM).
For `CCCCCC(O)/C=C/C=O` (centres unmarked), the IC50 was 85 µM and 65 µM and 78 µM and 86 µM and 67 µM and 71 µM and 116 µM (proteome cysteines; IA-probe labelling, competitive isoTOP-ABPP; MDA-MB-231 proteome).
`Cc1cn(CC(=O)N(CCNC(=O)CN(CCNC(=O)CN(CCNC(=O)CN(CCNC(=O)CN(CCNC(=O)CN(CCNC(=O)CN(CCNC(=O)CN(CCN)C(=O)Cn2cnc3c(=O)[nH]c(N)nc32)C(=O)Cn2cnc3c(N)ncnc32)C(=O)Cn2cc(C)c(=O)[nH]c2=O)C(=O)Cn2cnc3c(=O)[nH]c(N)nc32)C(=O)Cn2cc(C)c(=O)[nH]c2=O)C(=O)Cn2cnc3c(=O)[nH]c(N)nc32)C(=O)Cn2cnc3c(N)ncnc32)CC(=O)NCCN(CC(=O)NCCOCCOCC(N)=O)C(=O)Cn2cnc3c(N)ncnc32)c(=O)[nH]c1=O` has a ΔTm of -10.3 °C (mismatched RNA TG; duplex formation, UV melting; baseline: complementary RNA).
`Nc1ncc2c(n1)-c1c([nH]c3ccc(C4=CCOCC4)cc13)CCC2` gave a remaining binding of 70% (FLT3 ITD D835V; scanMAX; 1 µM; baseline: control).
With `O=C(N/N=C/c1ccc2c(ccc[n+]2Cc2ccccc2)c1)N/N=C/c1ccc2c(ccc[n+]2Cc2ccccc2)c1` the ΔTm was 8.8 ± 1.1 °C (MYC parallel G4 DNA; FRET melting; 1 µM, DNA 0.2 µM).
`C=CC(=O)Nc1cccc(Cn2ncc3cnc(Nc4cnn(CCOC)c4)nc32)c1` — result for “percent of control”: 100% (AKT2 human; binding, KINOMEscan; 100 nM; lower = stronger binding).
For `c1ccc(-c2n[nH]cc2-c2ccnc3ccccc23)nc1`, “log2 fold change” read -0.28 (SHA3 (Candida albicans); kinase binding, MIB/MS competition; Candida albicans lysate; 10 µM; baseline: DMSO).
`CCN1CCN(Cc2ccc(NC(=O)c3ccc(C)c(NC(=O)c4cncc(-c5cccs5)c4)c3)cc2C(F)(F)F)CC1` has a binding of 2.2% (FLT3 ITD; KinomeScan; 1 µM; baseline: DMSO control).
`O=C(Nc1cccc(C(=O)N2CCC(c3nc(-c4ccccc4)n[nH]3)CC2)c1)c1ccccc1` gave an IC50 of 3.03 ± 0.08 µM (FSP1 F15A mutant; resazurin reduction, inhibitor; pH 7.2, added: 50 µM resazurin, NADH).
`C[n+]1ccc(/C=N/NC(=O)c2cc(C(=O)N/N=C/c3cc[n+](C)c4ccccc34)ncn2)c2ccccc21` gave a ΔTm of 3.1 ± 0.2 °C (MYC parallel G4 DNA; FRET melting; 1 µM, DNA 0.2 µM, added: duplex DNA competitor 10 µM).
With `CCCCCCCCCCCC(=O)N[C@@H](CO)C[C@@H](O)c1cccc(CCCCCC)c1` the sphingomyelin level was 691000 pmol/sample and 698000 pmol/sample and 837000 pmol/sample (CERT; HPLC-MS/MS, measured: total sphingomyelin; HeLa; 1 µM, 24 h).
`CC(=O)NCCN(CCC(=O)NCCN(CCC(=O)NCCN(CCC(=O)NCCC(N)=O)C(=O)[C@@H](N)Cc1ccccc1)C(=O)[C@@H](N)CCCNC(=N)N)C(=O)[C@@H](N)CCCNC(=N)N` gave a melting temperature of 61.7 ± 0.1 °C (HIV-1 TAR RNA; RNA thermal stability, UV melting; 5 µM, pH 7.5, added: 1 µM TAR RNA).
For `C/C=C(/C)C(=O)OC[C@H]1[C@@H](Cc2ccc(C(C)(C)C)cc2)CO[C@@H]1c1ccc(F)cc1`, the IC50 was at least 20 µM (NF-κB; reporter gene; HEK293/NF-κB-luc; 4 h, added: TNFα 2 ng/mL).
For `CC(=O)NCCN(c1nc(NCc2n[nH]c3c2CCCC3)nc(N2CC3C(CCOc4cc(-c5scnc5C)ccc4CNC(=O)[C@@H]4C[C@@H](O)CN4C(=O)[C@@H](NC(=O)C4(F)CC4)C(C)(C)C)C3C2)n1)C(C)C` (some centres unmarked), the cooperativity alpha was 90 (VHL-elongin C-elongin B and BRD9; SPR; immobilized VHL-elongin C-elongin B; baseline: binary KD over ternary KD).
With `O=C(N/N=C/c1cc[n+](CC2CC2)c2ccccc12)N/N=C/c1cc[n+](CC2CC2)c2ccccc12` the ΔTm was 1.8 ± 0.4 °C (hp2 hairpin duplex DNA; FRET melting; 1 µM).
For `Fc1ccc(Nc2nc(NC3CCCCC3)c3cc(C(F)(F)F)ccc3n2)cc1F`, the pIC50 was 7 (β2AR/β1AR ECL2/3 chimera; β-arrestin2 recruitment, antagonist, BRET; added: isoprenaline 1 µM).
`O=C(N/N=C/c1cc[n+](Cc2ccccc2)c2ccccc12)N/N=C/c1cc[n+](Cc2ccccc2)c2ccccc12` gave a ΔTm of 1 ± 0.1 °C (hp2 hairpin duplex DNA; FRET melting; 1 µM, added: ds26 10 µM).
For `CCCCCCc1cccc(C(O)CC(CO)NC(=O)CCCCCCCCCCNC(C)=O)c1` (centres unmarked), the sphingomyelin level was 786000 pmol/sample and 619000 pmol/sample and 808000 pmol/sample (CERT; HPLC-MS/MS, measured: total sphingomyelin; HeLa; 1 µM, 24 h).
`C[n+]1cc(/C=N/NC(=O)c2cccc(C(=O)N/N=C/c3cc4ccccc4[n+](C)c3)n2)cc2ccccc21` has a ΔTm of 7 ± 0.7 °C (MYC parallel G4 DNA; FRET melting; 1 µM, DNA 0.2 µM).
The cooperativity alpha of `C#CCN1CCN(c2nc(N3CCN(c4ccc(Cc5cc(CNC(=O)[C@@H]6C[C@@H](O)CN6C(=O)[C@@H](NC(=O)C6(F)CC6)C(C)(C)C)c(O)cc5-c5scnc5C)cc4)CC3)nc(N3CCN(C(=O)C4CC4)C3)n2)CC1=O` is reported as 14 (VHL-elongin C-elongin B and BRD9; SPR; immobilized VHL-elongin C-elongin B; baseline: binary KD over ternary KD).

Repeated from above:
With `C=CC(=O)N1[C@@H](c2ccc3c(c2)OCO3)c2[nH]c3ccccc3c2C[C@H]1C(=O)N1CCN(C)CC1` the relative co-enrichment was 76% (human cyclin E1 wild type-3xFLAG:CDK2; co-IP with TMT proteomics, measured: DDX3X; concentration not given, O00571; baseline: wild type DMSO).
With `C[n+]1ccc(/C=N/NC(=O)C(=O)N/N=C/c2cc[n+](C)c3ccccc23)c2ccccc21` the ΔTm was 1.2 ± 0.4 °C (hp2 hairpin duplex DNA; FRET melting; 1 µM).
For `CCCCCC(O)/C=C/C=O` (centres unmarked), the IC50 was 85 µM and 65 µM and 78 µM and 86 µM and 67 µM and 71 µM and 116 µM (proteome cysteines; IA-probe labelling, competitive isoTOP-ABPP; MDA-MB-231 proteome).
